Assay results from different studies.
Every numbered part comes from another study and shows a few of its results, in no order.

Series 1
Target: Sal-like protein 4, full length isoform B (SALL4, Homo sapiens, UniProt Q9UJQ4-2, residues 1-616)
Technique: universal PBM
Molecule type: double-stranded DNA, one strand shown
Sample: in vitro
Tested at: not given
Setting: 8-mer, flanks averaged, mean of replicates
Direction: higher = stronger binding
Construct (chain): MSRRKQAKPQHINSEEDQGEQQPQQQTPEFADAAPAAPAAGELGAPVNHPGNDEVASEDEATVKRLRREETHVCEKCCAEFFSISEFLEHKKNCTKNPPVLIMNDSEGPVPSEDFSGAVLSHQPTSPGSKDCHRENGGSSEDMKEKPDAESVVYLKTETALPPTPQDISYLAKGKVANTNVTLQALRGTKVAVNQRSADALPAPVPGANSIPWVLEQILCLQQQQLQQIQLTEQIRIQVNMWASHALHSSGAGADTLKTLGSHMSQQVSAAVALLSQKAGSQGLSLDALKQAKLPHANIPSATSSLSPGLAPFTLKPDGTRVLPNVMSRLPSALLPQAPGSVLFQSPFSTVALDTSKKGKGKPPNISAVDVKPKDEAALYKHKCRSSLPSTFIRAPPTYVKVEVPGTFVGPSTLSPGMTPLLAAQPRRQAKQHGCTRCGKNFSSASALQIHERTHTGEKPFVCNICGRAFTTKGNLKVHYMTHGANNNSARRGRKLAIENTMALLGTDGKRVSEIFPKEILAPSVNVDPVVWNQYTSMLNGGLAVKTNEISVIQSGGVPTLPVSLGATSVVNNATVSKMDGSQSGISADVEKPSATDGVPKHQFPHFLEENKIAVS
`TGCAAGCA` has an E-score of 0.0594.
`ATGGACAT` has an E-score of 0.142.
For `TGCCGTAA`, the E-score was -0.0528.
For `GATCAAAC`, the E-score was -0.0329.
For `CACTCAAG`, the E-score was -0.171.
`AATGCAAG` has an E-score of 0.136.
`ATTTTGTC` has an E-score of 0.262.
For `AATCAGAA`, the E-score was 0.0251.
The E-score of `CATGATTC` is reported as -0.0226.
`CGCACAAA` has an E-score of 0.0144.
`CCAGTTCA` has an E-score of -0.0588.
For `CGGCTTGA`, the E-score was -0.218.
With `CAGGAACC` the E-score was -0.149.
For `CTCTGTTA`, the E-score was -0.023.
`CCTTACAG` gave an E-score of -0.0319.
With `GTGCTGTA` the E-score was -0.0203.
For `ATCGATAC`, the E-score was 0.128.
For `GATCCGAA`, the E-score was -0.132.
The E-score of `ACAGCGTG` is reported as -0.0614.
For `AGCCCAAA`, the E-score was 0.0897.
`AGTGAGAC` gave an E-score of -0.104.
`ACGCCATC` has an E-score of -0.205.
`GCGCAACC` gave an E-score of -0.309.
`CCCTCCAC` gave an E-score of -0.198.
`ATTGTTAC` gave an E-score of 0.292.

Series 2
Target: Interferon regulatory factor 5, full length, phosphomimetic (IRF5, Homo sapiens, UniProt Q13568-2, residues 1-514, S451D/S453D/S456D/S462D)
Technique: protein-binding microarray
Molecule type: double-stranded DNA, one strand shown
Sample: in vitro
Tested at: 940 nM top
Setting: 60-bp whole probe
Together with: salmon DNA 0.4 mg/ml
Relative to: random background probes
Direction: higher = stronger binding
Constant ends, left off below: GCCTAGCAC … GTCTTGATTCGCTTGACGCTGCTG
For `TCTCCTCCCCCTCTGCCACCGTGCTAG`, “fitted relative affinity” read 0.317 z-score.
For `GACGGTTTCGGTCTCGGGACGTGCTAG`, “fitted relative affinity” read 13.8 z-score.
Under “fitted relative affinity”, `TTAGGTCTACTTTTCCTTTAGTGCTAG` is recorded as 0.252 z-score.
For `TTAGGTTTCGGACTGGGATAGTGCTAG`, “fitted relative affinity” read 7.43 z-score.
`GACAGACTGCTTTTCCTGACGTGCTAG` — result for “fitted relative affinity”: 0.0391 z-score.
`GACGGTATCGTCACTGGGGACGTGCTA` — result for “fitted relative affinity”: 1.72 z-score.
For `TTAGATCTCAGTTTCGAATAGTGCTAG`, “fitted relative affinity” read 3.84 z-score.
`TTAGATATCGGGAGTGGATTAGTGCTA`: “fitted relative affinity” 0.727 z-score.
Under “fitted relative affinity”, `TTAGGTATACTTATCCTTTAGTGCTAG` is recorded as -0.281 z-score.
`GACGGTTTCGGTTCCGGGACGTGCTAG`: “fitted relative affinity” 13.3 z-score.
`CAAGTTTCTCCTTTGTAAATGTGCTAG` — result for “fitted relative affinity”: 3.79 z-score.
For `TTAGGTCTCGGTAACGGTTAGTGCTAG`, “fitted relative affinity” read 3.75 z-score.
`CACATTGTGCAATCTTAATAAGTGCTA`: “fitted relative affinity” -0.123 z-score.
`GGCGGACTGCTTATCCTGACGTGCTAG` — result for “fitted relative affinity”: -0.538 z-score.
`TCACCTTTCCAAATACCACTGTGCTAG` — result for “fitted relative affinity”: 1.52 z-score.
`TTAGGAATCCTTCTCCTTTAGTGCTAG` — result for “fitted relative affinity”: -0.323 z-score.
For `TTGTGTGTGTGTTTGTGTGTGTGCTAG`, “fitted relative affinity” read 0.307 z-score.
For `TAAGGTTTCGGGACTGGGTTAGTGCTA`, “fitted relative affinity” read 5.32 z-score.

Series 3
Target: RNA binding protein fox-1 homolog 2, RRM domain, GST-SBP tag (RBFOX2, Homo sapiens, UniProt O43251-10, residues 100-194)
Technique: RNA Bind-n-Seq
Molecule type: RNA
Sample: in vitro
Tested at: 365 nM
Setting: natural RNA segment, single round, ends assumed
Relative to: no-protein control
Direction: higher = stronger binding
Residues (chain): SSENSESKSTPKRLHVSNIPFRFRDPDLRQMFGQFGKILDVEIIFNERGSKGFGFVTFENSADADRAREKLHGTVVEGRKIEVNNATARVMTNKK
`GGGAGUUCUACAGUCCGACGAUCUUCCUCCAUGUGUGUCCUGUGAGGAUUUUGCUCAUGAGUCAUGCAGGCAGUGACAGUGAACUGUAAAUACCACAUGUGAGUUUACCUGGAUCUGUGCAUUUUGUGCCUUAUGGAAUUCUCGGGUGCCAA`: “RBNS enrichment (R)” 0.391.
For `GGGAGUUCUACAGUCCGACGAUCUUAAUGCAAAUCCAUUACAUGGUGCUAUUAUAGGCUGACAAAAUGAUUUACACAAAUGUGACAACUUGGGCUCAAUUCACUCUGCUUUCCAACAGUGUAAAUGCAUAGCAUGGAAUUCUCGGGUGCCAA`, “RBNS enrichment (R)” read 0.363.
`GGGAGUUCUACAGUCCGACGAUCGAACCCCACUCAGCGAAUUGGGGGUGGCCUGGGAGAUGCUGCUGAUGUCCAGAGGCACCCCUUUUUCCGGCACAUCAAUUGGGAUGAUCUCUUGGCCCGCCGCGUGGACCUGGAAUUCUCGGGUGCCAA`: “RBNS enrichment (R)” 0.494.
Under “RBNS enrichment (R)”, `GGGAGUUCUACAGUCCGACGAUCCAGAAGGAGGCCCUGGCUGCUCCAGCUUGGGUGGAGCCUACUGAAAUGUGGAAACUGUGUAUCUUAUAGAGCCUCCUCUCGUCCUACUCAUCCCUCAGCAGAAAAAUGUGUGGAAUUCUCGGGUGCCAA` is recorded as 0.97.
Under “RBNS enrichment (R)”, `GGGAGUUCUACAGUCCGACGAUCCCAGUUUGGAUUGAUGAAAGUGAUUUUUCUGCUUUACCUUUUUCCUGUCAGAAAGGUUUUCCUCUGUGCUACCCUUAACUUAGGGAUGAACAGACUAUAACUAGGAAAGGUGGAAUUCUCGGGUGCCAA` is recorded as 0.31.
`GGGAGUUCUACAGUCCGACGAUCCAGCAUGCUAAUCAGUGUCAGUGAAUCCACAGUCUUUACUUCCUGCCUCAUAAAGGGCCAGGUCUCCCCAGUACCAAGUCCUUUCCUCAUGAAGUUGUGUUGCCUCAGGCUGGAAUUCUCGGGUGCCAA` — result for “RBNS enrichment (R)”: 1.77.
`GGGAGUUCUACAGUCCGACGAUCUUGCCUGUUUCCACUUACCAGGAAAUUCCUUCAGAACUAGAUUAGCAUUGCCCUGCCUGUCUGAAAGGACAGUUUACCUAAUGGUGCCAGCCUCCUUUUGCUUUGGCAAGUGGAAUUCUCGGGUGCCAA` — result for “RBNS enrichment (R)”: 0.333.
Under “RBNS enrichment (R)”, `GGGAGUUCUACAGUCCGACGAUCCUACAAAGCACAUGCGCCCAAGUGGGAAUCCAAGGACUUUAGACCUAACAAAGUCUCCGAAACUAGUAGGACUACUACCACAUCUUUAUCCCCUGAGCUGAUCCGCUUCAUGGAAUUCUCGGGUGCCAA` is recorded as 0.283.
`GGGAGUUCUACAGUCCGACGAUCCUGCUAGCUUGCAAAGUUAUGAGAGUUUAAAAAAUAAAAUAUAUGAAAAUAUGUAAAGCUGUUGAGAUGUGUUUACUUAUACUUCAGAACAUUAAAAGUUUAAAAACUGGUGGAAUUCUCGGGUGCCAA`: “RBNS enrichment (R)” 1.02.
`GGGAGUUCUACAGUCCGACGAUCGUGUAACACACUGAUGGUUUUAAUGUAUCUUUUCCACUUAUUAUAGUUAUAUUCCUACAAUACAAUUUUAAAAUUGUCUUUUUAUAUUAUAUUUAUGCUUCUGUGUCAUGUGGAAUUCUCGGGUGCCAA`: “RBNS enrichment (R)” 1.52.
For `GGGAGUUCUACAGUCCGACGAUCUGCUCUUAAAAGCACUCAUAGAAAGUGUAAGCAUGUGUAAGCAUGUCCUGAAUAGCUUACUAUUCUGUCAUGGUAAAACACAGCCUUUCUGUUCAAAUAUUAGGCCAAUCUGGAAUUCUCGGGUGCCAA`, “RBNS enrichment (R)” read 0.275.
`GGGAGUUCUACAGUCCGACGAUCAUCAUGCUGGUGAGAAAGUAUGAUUUCCCAACCUCUGCUUGUGGUGUUGGAAGGAGUGGCCUGGCCAGGCAGGUUGAUGUAAGGCUAUGGGAGACCCAAGGGGAACACAUUGGAAUUCUCGGGUGCCAA`: “RBNS enrichment (R)” 1.76.

Series 4
Target: Protein C-ets-1 (ETS1, Homo sapiens, UniProt P14921, residues 1-441, Y397A, full length assumed)
UniProt P14921, sequence (whole entry, unmodified, looked up): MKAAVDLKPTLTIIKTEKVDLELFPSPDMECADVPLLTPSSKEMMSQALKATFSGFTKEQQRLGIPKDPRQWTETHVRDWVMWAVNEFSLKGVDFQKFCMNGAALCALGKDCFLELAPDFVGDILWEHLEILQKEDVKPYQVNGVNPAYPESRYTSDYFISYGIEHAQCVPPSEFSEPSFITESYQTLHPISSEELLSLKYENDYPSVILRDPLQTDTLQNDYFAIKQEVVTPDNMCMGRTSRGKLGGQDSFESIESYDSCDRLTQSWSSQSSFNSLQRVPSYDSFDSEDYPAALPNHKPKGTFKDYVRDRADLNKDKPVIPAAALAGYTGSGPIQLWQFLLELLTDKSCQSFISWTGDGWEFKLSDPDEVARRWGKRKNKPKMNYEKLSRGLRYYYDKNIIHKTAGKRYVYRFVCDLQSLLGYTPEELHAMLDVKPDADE
Technique: protein-binding microarray
Molecule type: double-stranded DNA, one strand shown
Sample: in vitro
Tested at: not given
Setting: k-mer, scored over probes, only values ≥0.25
Direction: higher = stronger binding
`AGCATCCG` gave an E-score of 0.264.
For `TACGGCAA`, the E-score was 0.255.
The E-score of `CGTGACAC` is reported as 0.274.
With `GCGGAAAC` the E-score was 0.26.
The E-score of `ATGTTGCG` is reported as 0.297.
For `CGCAACAA`, the E-score was 0.289.
With `AGTTGCAA` the E-score was 0.258.
For `TGTACAAA`, the E-score was 0.312.
With `ATTTCCGG` the E-score was 0.487.
`CAAAAATA` gave an E-score of 0.256.
For `CAACGGAA`, the E-score was 0.287.
For `CGCGCAAA`, the E-score was 0.355.
`CACCGACA` gave an E-score of 0.321.
`GTCAAACA` has an E-score of 0.272.
With `TATCGTCA` the E-score was 0.263.
`ACATCCGA` has an E-score of 0.372.
`CACTATAG` gave an E-score of 0.26.
With `GACGGAAA` the E-score was 0.253.

For quick reference, copied from above (series 4):
With `GCGGAAAC` the E-score was 0.26.
`GTCAAACA` has an E-score of 0.272.
For `CGCAACAA`, the E-score was 0.289.
`ACATCCGA` has an E-score of 0.372.
For `TACGGCAA`, the E-score was 0.255.
With `AGTTGCAA` the E-score was 0.258.
`CACTATAG` gave an E-score of 0.26.
